Results from different studies.
Each line is one published result; not all experiments were run side by side. ± marks the error that the study gave.
T1: MBNL1 1-382 (Homo sapiens); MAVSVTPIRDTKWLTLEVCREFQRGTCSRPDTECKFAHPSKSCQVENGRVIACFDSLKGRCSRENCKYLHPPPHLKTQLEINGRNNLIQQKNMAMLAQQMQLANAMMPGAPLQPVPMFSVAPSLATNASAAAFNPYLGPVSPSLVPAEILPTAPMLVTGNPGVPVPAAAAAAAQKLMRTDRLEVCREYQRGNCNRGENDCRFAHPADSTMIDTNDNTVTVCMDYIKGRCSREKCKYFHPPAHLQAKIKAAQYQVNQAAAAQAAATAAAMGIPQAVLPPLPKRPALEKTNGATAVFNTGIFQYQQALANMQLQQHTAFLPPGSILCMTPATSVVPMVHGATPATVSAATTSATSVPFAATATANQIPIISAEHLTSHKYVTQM
B1: UGT1A9 (Homo sapiens, UniProt O60656); chain GKLLVVPMDGSHWFTMRSVVEKLILRGHEVVVVMPEVSWQLGRSLNCTVKTYSTSYTLEDLDREFKAFAHAQWKAQVRSIYSLLMGSYNDIFDLFFSNCRSLFKDKKLVEYLKESSFDAVFLDPFDNCGLIVAKYFSLPSVVFARGILCHYLEEGAQCPAPLSYVPRILLGFSDAMTFKERVRNHIMHLEEHLLCHRFFKNALEIASEILQTPVTEYDLYSHTSIWLLRTDFVLDYPKPVMPNMIFIGGINCHQGKPLPMEFEAYINASGEHGIVVFSLGSMVSEIPEKKAMAIADALGKIPQTVLWRYTGTRPSNLANNTILVKWLPQNDLLGHPMTRAFITHAGSHGVYESICNGVPMVMMPLFGDQMDNAKRMETKGAGVTLNVLEMTSEDLENALKAVINDKSYKENIMRLSSLHKDRPVEPLDLAVFWVEFVMRHKGAPHLRPAAHDLTWYQYHSLDVIGFLLAVVLTVAFITFKCCAYGYRKCLGKKGRVKKAHKSKTH
Sequence of UniProt Q8H1D4 (whole entry, looked up): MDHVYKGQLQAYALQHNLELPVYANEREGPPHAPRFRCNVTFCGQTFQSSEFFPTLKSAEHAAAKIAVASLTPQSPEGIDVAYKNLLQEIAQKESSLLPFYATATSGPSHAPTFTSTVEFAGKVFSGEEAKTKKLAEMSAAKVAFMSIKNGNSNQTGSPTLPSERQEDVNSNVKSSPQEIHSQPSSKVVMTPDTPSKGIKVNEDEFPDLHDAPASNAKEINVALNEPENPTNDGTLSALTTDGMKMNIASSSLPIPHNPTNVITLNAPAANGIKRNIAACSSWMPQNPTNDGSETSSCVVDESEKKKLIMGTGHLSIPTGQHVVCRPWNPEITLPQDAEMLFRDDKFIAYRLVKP
Sequence of UniProt Q9FGD6 (whole entry, looked up): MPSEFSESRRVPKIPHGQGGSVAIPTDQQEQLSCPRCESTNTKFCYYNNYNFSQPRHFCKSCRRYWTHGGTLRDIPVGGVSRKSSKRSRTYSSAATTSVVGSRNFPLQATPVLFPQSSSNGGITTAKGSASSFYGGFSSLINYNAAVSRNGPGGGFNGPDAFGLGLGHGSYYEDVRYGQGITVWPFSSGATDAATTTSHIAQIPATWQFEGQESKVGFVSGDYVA
Sequence of UniProt P01031 (whole entry, looked up): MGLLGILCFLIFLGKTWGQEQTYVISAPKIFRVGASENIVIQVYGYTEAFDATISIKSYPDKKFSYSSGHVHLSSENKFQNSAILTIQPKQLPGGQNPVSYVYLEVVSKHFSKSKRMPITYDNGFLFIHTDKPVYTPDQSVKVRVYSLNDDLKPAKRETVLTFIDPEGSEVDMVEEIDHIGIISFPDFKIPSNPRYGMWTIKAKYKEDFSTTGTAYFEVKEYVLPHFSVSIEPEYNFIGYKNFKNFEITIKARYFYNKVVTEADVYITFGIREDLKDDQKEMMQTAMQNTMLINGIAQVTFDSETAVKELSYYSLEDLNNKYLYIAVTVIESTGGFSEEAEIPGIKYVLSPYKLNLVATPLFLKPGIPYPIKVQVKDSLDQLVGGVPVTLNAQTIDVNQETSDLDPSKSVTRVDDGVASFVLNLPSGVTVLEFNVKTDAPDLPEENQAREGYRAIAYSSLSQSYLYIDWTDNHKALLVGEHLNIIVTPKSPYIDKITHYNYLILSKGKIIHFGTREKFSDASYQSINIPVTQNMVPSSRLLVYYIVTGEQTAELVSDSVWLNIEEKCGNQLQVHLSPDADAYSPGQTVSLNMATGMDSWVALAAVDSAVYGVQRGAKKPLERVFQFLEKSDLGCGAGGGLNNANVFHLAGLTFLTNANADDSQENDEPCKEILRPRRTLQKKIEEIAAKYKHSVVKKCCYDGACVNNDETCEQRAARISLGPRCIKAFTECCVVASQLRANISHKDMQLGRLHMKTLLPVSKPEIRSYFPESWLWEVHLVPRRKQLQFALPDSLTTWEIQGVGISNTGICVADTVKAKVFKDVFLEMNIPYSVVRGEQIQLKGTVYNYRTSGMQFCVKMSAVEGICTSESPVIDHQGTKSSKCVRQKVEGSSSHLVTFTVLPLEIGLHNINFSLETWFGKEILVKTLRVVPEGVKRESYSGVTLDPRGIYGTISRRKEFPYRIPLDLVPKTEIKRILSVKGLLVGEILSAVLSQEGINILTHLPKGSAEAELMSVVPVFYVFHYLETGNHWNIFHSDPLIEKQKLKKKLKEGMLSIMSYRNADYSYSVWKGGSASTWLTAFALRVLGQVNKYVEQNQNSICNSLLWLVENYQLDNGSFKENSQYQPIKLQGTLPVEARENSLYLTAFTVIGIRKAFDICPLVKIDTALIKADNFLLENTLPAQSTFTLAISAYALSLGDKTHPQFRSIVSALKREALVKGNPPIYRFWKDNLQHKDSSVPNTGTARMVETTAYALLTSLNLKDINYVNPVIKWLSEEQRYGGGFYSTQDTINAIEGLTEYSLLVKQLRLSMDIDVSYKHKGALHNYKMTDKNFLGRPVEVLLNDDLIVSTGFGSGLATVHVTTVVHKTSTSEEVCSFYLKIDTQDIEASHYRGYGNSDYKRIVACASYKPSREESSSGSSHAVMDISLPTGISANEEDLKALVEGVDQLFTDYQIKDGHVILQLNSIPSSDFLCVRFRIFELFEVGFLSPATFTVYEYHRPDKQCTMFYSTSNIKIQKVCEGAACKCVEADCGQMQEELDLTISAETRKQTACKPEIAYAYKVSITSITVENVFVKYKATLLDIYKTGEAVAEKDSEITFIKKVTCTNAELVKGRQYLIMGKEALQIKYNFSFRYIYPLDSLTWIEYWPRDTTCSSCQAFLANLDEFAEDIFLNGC
Sequence of UniProt O66659 (whole entry, looked up): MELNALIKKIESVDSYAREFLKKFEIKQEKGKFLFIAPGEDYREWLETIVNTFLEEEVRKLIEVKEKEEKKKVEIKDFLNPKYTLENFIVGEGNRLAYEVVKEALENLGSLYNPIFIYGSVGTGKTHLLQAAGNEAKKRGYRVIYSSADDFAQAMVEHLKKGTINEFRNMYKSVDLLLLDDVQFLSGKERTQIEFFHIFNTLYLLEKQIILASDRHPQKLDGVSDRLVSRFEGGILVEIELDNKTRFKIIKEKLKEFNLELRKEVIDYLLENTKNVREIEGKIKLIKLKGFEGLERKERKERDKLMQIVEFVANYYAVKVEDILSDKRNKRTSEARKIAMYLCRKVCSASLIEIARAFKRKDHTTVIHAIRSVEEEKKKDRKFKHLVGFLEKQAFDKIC

Substance | tested on | assay | test system | conditions | quantity | value
GAGUUGAGUUGAGUUGAGUUGAGUUGAGUUGAGUUGAGUUGAGUUGAGUUGAGUU (ssRNA; single strand) | mtrB full length assumed T30N (Bacillus subtilis, UniProt P19466) | filter binding |  | together with: no tryptophan | Kd | 518 ± 70 nM
GCCUGAUGUGGUGGUGAAGGGUUGUUGGGUGUCGACGCACAGGC (L-RNA; terminal stem) | C5a (Homo sapiens, UniProt P01031) | SPR |  |  | Kd | 1.36 nM
TGGCGACGGCAGCGAGGCTTTTTTTTTTTTTTTTTTTTTTTTTTTTTTTTTTTTTTTTTTTTTTTTTTTTTT / GCCTCGCTGCCGTCGCCA (DNA duplex; 18 bp, 3' overhang, C6-amino-dT) | dnaA 77-399 (Aquifex aeolicus, UniProt O66659) | smFRET |  | together with: ADP-BeF3 1 mM | Kd | 5000 nM
AAATAATCATAAAGTATTAAAGTAATATATAC (dsDNA (Arabidopsis thaliana)) | DOF5.8 zinc finger (Arabidopsis thaliana, UniProt Q9FGD6) | EMSA | double-stranded DNA, one strand shown |  | Kd | 5000 nM
GAGGCCCTTTCGTCTTCAAGAATTCTATTTGACAAAAATGGGCTCGTGTTGTACAATAAATGTGTCTAAGCTTGGGTCCCACCTGAC (dsDNA (Bacillus subtilis); blunt, A replaced by 7-methyl-7-deazaadenine) | RNA polymerase holoenzyme sigma70 (Escherichia coli) | EMSA | double-stranded DNA, one strand shown |  | Kd | 54.3 ± 4.4 nM
TGCTGCCATCTTATATTTTCTATACAAAAGTATAGAAAATATAAGATGGCAGCAGCATCTTGATGCGAGGACGTCAAAAGACGTCCTCGCATCAAGATGC (dsDNA; double hairpin dumbbell, nick, AAAA loops) | SPO11/TOP6BL (Mus musculus) | EMSA |  | without Mg2+ | Kd | 68.4 ± 3.06 nM
GGACAGGACCACACCCAGCGCGGTCGGCGGGTGGGCGGGGGGAGAACGAGGTAGGGGTCAGGCTCCTGTGTGTCGCTTTGT (ssDNA) | LDLR fragment (Homo sapiens) | flow cytometry | MDA-MB-231 | in cells, tRNA competitor, not purified | Kd | 252 nM
UGAGGUAGUAGGUUGUAUAGUU / CUAUACAACCUACUACCUCANN (dsRNA; 3' overhang 2 nt) | DBR4 1-75 (Arabidopsis thaliana, UniProt Q8H1D4) | ITC |  | averaged single site | Kd | 8700 ± 2800 nM
CAGCAGCAGCAGCAGCAGCAGCAGCAGCAGCAGCAGCAGCAGCAGCAGCAGCAGCAGCAGCAGCAGCAGCAGCAGCAGCAGCAGCAGCAGCAGCAGCAGCAGCAGCAGCAGCAGCAGCAGCAGCAGCAGCAGCAGCAGCAGCAGCAGCAGCAGCAGCAGCAG (structured RNA) | T1, MBNL1 1-382 (Homo sapiens) | filter binding |  |  | Kd | 11.2 ± 1.5 nM
B1 (UGT1A9) | O=c1cc(-c2ccccc2O)oc2ccccc12 | steady-state kinetics |  | pH 7.4, 37 °C | Vmax/Km | 186 µL/min/mg
GCGGACGGACAGAGAGUGCAACCUGCCGUGCCGC (ssRNA; 2'-F pyrimidines, 5' thiol-C6) | ITGA5/ITGB1 on cells (Homo sapiens) | flow cytometry | T24 | apparent, no added Mg2+/Ca2+, not purified | Kd | 226 ± 30.8 nM

A few entries again:
Substance | tested on | assay | test system | conditions | quantity | value
AAATAATCATAAAGTATTAAAGTAATATATAC (dsDNA (Arabidopsis thaliana)) | DOF5.8 zinc finger (Arabidopsis thaliana, UniProt Q9FGD6) | EMSA | double-stranded DNA, one strand shown |  | Kd | 5000 nM
